Published values gathered from unrelated publications.
Every numbered part comes from another study and shows a few of its results, in no order. Substitutions count along the parent as printed.

Block 1
Target: CCNA1, cyclin fold, Cln2 fusion (human)
Method: yeast growth competition, sequencing
Matrix: yeast
Notes: weak parent motif
Baseline: not given
Reading: higher = stronger binding
Quantity: normalised enrichment score
Starting sequence: DBF4B docking peptide (human); LGYLYLLLTQSLW
S11A: 0.217
Y5A: -0.0308
L8A: 0.0269
W13A: -0.336
L12A: -0.24
Q10A: 0.241
L1A: -0.154

Block 2
Target: Histone acetyltransferase KAT6A, both winged helices, GST fusion (KAT6A, Homo sapiens, UniProt Q92794, residues 1-181)
Method: protein binding microarray
Form: double-stranded DNA, one strand shown
Matrix: in vitro
Concentration: not given
Notes: 8-mer, flanks averaged, mean of 2 arrays, mostly near background
Baseline: not given
Reading: higher = stronger binding
Quantity: E-score
Residues (chain): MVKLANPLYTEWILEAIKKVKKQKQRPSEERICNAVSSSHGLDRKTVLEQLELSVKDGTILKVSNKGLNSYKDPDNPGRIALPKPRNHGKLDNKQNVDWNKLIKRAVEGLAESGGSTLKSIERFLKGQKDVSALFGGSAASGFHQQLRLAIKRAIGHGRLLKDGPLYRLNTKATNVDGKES
AACTAGAG: -0.1
CTCGCTCA: 0.0493
CACAACGA: 0.0923
TCACCTCA: -0.11
GAGTAGGA: -0.21
AACCAGAA: -0.105
ATATTCTC: -0.187
ATCGAGTC: -0.0632
ACCTTTTC: -0.195
GCGCGATA: 0.307
AGTTGCAT: -0.132
ATTCCATG: -0.0427
ATTGGACG: 0.0461
GCTTGCCC: -0.0158
CACGGTAG: 0.0338
GCCCCGGC: 0.0844
CACATGGC: 0.019
ATGGATGG: -0.142
GGGGCCAC: -0.212
GTCCAGAC: -0.0358
TCAAGACA: -0.0777
GATGTTGA: 0.0166
ACTCTCAA: -0.254
AACGCTAG: -0.0413
AAGCTCAT: -0.0747

Block 3
Target: Interferon regulatory factor 7, full length, phosphomimetic (IRF7, Homo sapiens, UniProt Q92985, residues 1-503, S471D/S472D/S475D/S476D/S477D/S483D/S484D/S487D)
Chain of UniProt Q92985 (whole entry, unmodified, looked up): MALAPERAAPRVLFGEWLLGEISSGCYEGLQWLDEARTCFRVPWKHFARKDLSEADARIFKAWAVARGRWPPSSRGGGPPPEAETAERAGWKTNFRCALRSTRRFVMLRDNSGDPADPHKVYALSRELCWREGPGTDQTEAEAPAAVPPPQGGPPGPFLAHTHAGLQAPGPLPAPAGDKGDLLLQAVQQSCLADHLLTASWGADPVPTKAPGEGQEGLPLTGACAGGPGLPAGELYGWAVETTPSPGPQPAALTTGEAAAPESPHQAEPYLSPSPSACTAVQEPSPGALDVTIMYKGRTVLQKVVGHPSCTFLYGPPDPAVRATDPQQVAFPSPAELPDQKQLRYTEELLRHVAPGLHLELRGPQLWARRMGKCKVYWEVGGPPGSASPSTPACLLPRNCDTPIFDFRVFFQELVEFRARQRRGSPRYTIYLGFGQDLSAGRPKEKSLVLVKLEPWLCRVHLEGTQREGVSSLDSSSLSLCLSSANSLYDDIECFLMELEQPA
Method: protein-binding microarray
Form: double-stranded DNA, one strand shown
Matrix: in vitro
Concentration: 2200 nM top
Notes: 60-bp whole probe
Added: salmon DNA 0.4 mg/ml
Baseline: random background probes
Reading: higher = stronger binding
Quantity: fitted relative affinity
Constant ends, left off below: GCCTAGCAC … GTCTTGATTCGCTTGACGCTGCTG
TTAGATTTCGGGTATCGCTTAGTGCTA: 2.83 z-score
GACGGCTTCGACTTTCGGGACGTGCTA: 2.52 z-score
TCATTTTCATTGTTTTTCACTGTGCTA: 3.17 z-score
GAGTCTTCTCCTCTAGGTTCGTGCTAG: 1.17 z-score
TCATTTCTAAATTCCCTACTGTGCTAG: 1.92 z-score
TTAGGACTGGGTTTGGGTTAGTGCTAG: -0.122 z-score
TTAGGACTGGGACTGTGTTAGTGCTAG: -0.422 z-score
TCAGTTTTCCTTCATGTACTGTGCTAG: 3.75 z-score
GACGGTAACGGGTTTCGGGACGTGCTA: 0.827 z-score
GACGGACTGGGGACTGGGAACGTGCTA: -0.982 z-score
CACCCCGCCCCTCCTTGGCCGTGCTAG: -0.349 z-score
GACGAACTGGGGTTTCAAGACGTGCTA: 0.00521 z-score
GACGGTATCGAACTGGGGACGTGCTAG: 0.00925 z-score
TTAGATTTCAGTTCCGATTAGTGCTAG: 2.05 z-score
TCAGCTTCCTAATTCTCACTGTGCTAG: 1.73 z-score
GACGGTTTCGGTTTCGGGACGTGCTAG: 15.2 z-score
TTAGATTTCCGTTTCGATTAGTGCTAG: 5.67 z-score
TTAGGCCTGCTTTTCCTTTAGTGCTAG: 1.41 z-score
TTATGTCTCCTTCTCCTTTAGTGCTAG: 2.2 z-score
TTCGGTTTCGGGTATCGGTTAGTGCTA: 8.4 z-score
GACGGTTCCGGTTTCGGCACGTGCTAG: 4.41 z-score

Block 4
Target: RNA binding protein fox-1 homolog 2, RRM domain, GST-SBP tag (RBFOX2, Homo sapiens, UniProt O43251-10, residues 100-194)
Method: RNA Bind-n-Seq
Form: RNA
Matrix: in vitro
Concentration: 365 nM
Notes: natural RNA segment, single round, ends assumed
Baseline: no-protein control
Reading: higher = stronger binding
Quantity: RBNS enrichment (R)
Construct (chain): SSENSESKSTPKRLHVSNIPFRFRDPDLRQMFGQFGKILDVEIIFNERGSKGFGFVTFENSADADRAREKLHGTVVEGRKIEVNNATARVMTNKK
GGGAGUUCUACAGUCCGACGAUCUCAUCCUUGCUACUUGAGGCUGUUAUUUCCCUCCGAGUAUUUAAGGAGCCCAAACACCUUGGUCUUCCUGGGUGGGGGCAUAAUUAAGGGAAGGGAGUGUAUAAGGAAGGUGGAAUUCUCGGGUGCCAA: 0.281
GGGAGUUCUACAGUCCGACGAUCUUUUUUCUCUUUGGUUCUUGAAUAGCUUAGUUUCUUUAAUAACAAGUCAAACUUUAUUACAACAAUAACUGAAGUUAUUCUUUUAGGUUCUCGUGAAAUUCUCACUGAAAUGGAAUUCUCGGGUGCCAA: 0.504
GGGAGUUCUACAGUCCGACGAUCUACUAGACAGAUGGAGAGUGGCUUGGCUGUUUCCCCCUGCAUAUUGGGGUUGAAAACUUAAAUGUGUAGUUCCAGUCCUUCUAUGCAGAGUCUCUCCUGCCCUCCCUCCUUGGAAUUCUCGGGUGCCAA: 0.321
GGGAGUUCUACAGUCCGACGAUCGUCGUGAUGGAAAUAAACCUGAACCUGUUGCCCAGUACCAGGGCCUCUGCUGUUUGGUCUUCACUCUCUCUUCCUUGGAGGGAAAGCUACAAGAGACUCUCUUUUUAAUUUGGAAUUCUCGGGUGCCAA: 0.223
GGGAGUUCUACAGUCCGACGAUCGUAAAGCAGGCUAGAGUCUUAACCAUGGUGCUAUUCACUGGGUUUACUUGUUUAACACAAGUUUAUACCUGGUGUCAAUAAAACAAAUAUGUAUUUCUUGUCUACUAAGGUGGAAUUCUCGGGUGCCAA: 0.549
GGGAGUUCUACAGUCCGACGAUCUUGUGUAUUUCUCUGUGAAUCCAUGGGUCUGGCUAGAGGGCCCAAAGCUUGUAAAUAUGGGGAUAGUCUGGGUCAGACCCAUCUCUCCCUUACCCAUCUUGCUUCCAAGAUGGAAUUCUCGGGUGCCAA: 1.06
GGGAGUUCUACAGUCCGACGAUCCCCCUCAGUUUCCCCACACCCACUGUUGGCUGGAAGUGCUUCCAUUACCACUGUCAGAUUGGAAGUGACCGAAGCAGGGGAUGAAGAGAAAGCUCACAUUCUAAGUAGAGUGGAAUUCUCGGGUGCCAA: 0.322
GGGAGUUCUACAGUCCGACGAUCUCAAUAUCUGUUUUCUCUGGAGAGUCCACCAGUGACCCAAGCUCUCCCUGCCAGCCUCCUGUGUCAAACCAGGUCCCUUCUCAGUACUGUAUUGGCUCAGUGCUUUCAGGUGGAAUUCUCGGGUGCCAA: 0.281
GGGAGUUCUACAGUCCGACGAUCCAAUAAGCACUACACAUCUGCCACCAACAAUGUUGUUUGCAUUUACCUUACCAAUAUUAAUCCCAGCGUGGUAACUCUGUGUGACCCCGAUAACAUUUUGUAACAUUGUGUGGAAUUCUCGGGUGCCAA: 0.526
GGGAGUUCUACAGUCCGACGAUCGGUAGCAUCAGGUAUUGACAGGGAUCUGAAUCCCAAAGCAGAGAGAGAGGUCCAACCCCGUGUGGCCAGGCAGUGGCCCCUCACUCUUGCUUAGUGUCCAUCUCAUUUCUUGGAAUUCUCGGGUGCCAA: 0.474
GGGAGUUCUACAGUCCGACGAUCUUUGAGAGAAAUUAUUCAGAUUUUAUUUUUAUAUCCAUGGUAACAGAACCUAACCAAAAGGUUUCCCGUUCAGAAGUUUCCUUAGCUCUCGUCCCAAGCUAUUCGCUCACUGGAAUUCUCGGGUGCCAA: 0.346
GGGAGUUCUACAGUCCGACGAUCUAAUGUCUUGGAAAAAGACUCACAUGAAAAGUGGCUUUUAUAUUUGGUAGGAUAAAGCCAUUGUCCUUUAAUACCAUAGCAAAUAGAAGCAAUUUUUAAUGAGGUUACUGUGGAAUUCUCGGGUGCCAA: 0.297

Block 5
Target: Sal-like protein 4, full length isoform A (SALL4, Homo sapiens, UniProt Q9UJQ4, residues 1-1053)
Chain of UniProt Q9UJQ4 (whole entry, looked up): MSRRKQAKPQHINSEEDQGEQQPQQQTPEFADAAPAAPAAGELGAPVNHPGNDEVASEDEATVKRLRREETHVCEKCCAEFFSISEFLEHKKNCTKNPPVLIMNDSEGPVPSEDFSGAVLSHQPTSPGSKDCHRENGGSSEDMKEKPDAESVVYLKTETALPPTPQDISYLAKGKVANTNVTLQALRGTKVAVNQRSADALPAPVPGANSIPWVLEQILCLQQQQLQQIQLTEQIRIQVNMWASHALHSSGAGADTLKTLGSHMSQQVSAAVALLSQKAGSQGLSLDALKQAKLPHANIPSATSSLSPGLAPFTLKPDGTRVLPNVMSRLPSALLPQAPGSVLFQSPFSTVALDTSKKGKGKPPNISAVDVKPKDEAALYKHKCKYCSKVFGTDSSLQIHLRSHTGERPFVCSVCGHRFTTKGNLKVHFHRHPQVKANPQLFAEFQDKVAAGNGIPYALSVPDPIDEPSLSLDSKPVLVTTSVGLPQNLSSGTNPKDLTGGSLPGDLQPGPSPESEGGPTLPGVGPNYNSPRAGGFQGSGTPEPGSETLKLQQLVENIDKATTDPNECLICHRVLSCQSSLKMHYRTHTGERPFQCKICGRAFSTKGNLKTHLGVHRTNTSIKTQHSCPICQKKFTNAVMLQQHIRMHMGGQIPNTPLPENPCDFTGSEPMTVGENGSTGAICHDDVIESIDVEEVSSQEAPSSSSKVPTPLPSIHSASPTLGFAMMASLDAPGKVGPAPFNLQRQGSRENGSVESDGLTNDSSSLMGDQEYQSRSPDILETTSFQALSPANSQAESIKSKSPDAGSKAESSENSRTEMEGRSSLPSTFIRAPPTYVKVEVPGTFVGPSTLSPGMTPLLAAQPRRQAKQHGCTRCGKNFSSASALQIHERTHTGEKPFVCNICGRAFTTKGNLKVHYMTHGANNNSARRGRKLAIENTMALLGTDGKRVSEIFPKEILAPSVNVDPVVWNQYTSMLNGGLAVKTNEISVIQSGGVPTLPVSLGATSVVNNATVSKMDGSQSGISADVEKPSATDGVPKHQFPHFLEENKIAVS
Method: universal PBM
Form: double-stranded DNA, one strand shown
Matrix: in vitro
Concentration: 600 nM
Notes: 8-mer, flanks averaged, mean of replicates
Reading: higher = stronger binding
Quantity: E-score
ACCCGCGG: -0.315
CGTCGCCC: -0.34
CAGACCGG: -0.324
GTACCTGA: 0.0562
AGGTAGCA: -0.114
TAAAGTAA: 0.295
CGAATGCG: -0.0583
CTCACAGA: 0.0909
CGATTCGA: 0.0539
ACTGCTAT: 0.0937
AGTACATC: 0.114
GCCGCCGC: -0.359
GCATTACA: 0.0772
TAAATGGA: 0.182
ATGCACGC: 0.0484
CAATAGTG: 0.147
AGCCGCCG: -0.279
CAATAGCC: 0.0285
AAAGCCGC: -0.178
TTACACAA: 0.269
CGTCGGAG: -0.222
ACAGGATA: 0.141
